Measurements collected from several papers.
A part holds a random share of what one study measured.
Chain of UniProt Q02779 (whole entry, looked up): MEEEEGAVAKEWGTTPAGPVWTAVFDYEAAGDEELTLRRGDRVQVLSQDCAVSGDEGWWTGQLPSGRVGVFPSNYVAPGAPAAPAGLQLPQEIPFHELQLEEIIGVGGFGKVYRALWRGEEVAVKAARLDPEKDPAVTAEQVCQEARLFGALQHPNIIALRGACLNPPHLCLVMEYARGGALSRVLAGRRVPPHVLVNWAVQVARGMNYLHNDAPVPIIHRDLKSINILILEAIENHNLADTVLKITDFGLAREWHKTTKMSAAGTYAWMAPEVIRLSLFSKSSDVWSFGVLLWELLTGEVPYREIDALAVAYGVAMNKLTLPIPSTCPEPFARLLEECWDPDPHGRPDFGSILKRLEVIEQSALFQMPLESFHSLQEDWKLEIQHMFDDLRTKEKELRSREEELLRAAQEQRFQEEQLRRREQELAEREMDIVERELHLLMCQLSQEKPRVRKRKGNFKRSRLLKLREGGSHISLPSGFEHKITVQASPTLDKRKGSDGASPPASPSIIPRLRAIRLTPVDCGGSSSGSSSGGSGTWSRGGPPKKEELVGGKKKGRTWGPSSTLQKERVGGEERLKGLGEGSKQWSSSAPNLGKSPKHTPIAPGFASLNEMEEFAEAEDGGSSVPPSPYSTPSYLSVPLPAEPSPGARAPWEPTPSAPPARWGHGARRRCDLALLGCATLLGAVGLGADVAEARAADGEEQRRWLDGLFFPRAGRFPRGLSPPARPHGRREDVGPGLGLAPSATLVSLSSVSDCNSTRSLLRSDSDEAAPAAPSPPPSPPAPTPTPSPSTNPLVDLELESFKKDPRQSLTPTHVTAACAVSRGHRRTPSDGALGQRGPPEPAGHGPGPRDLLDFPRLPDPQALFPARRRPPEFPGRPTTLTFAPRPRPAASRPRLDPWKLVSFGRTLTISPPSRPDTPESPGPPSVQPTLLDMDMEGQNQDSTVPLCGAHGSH
Chain of UniProt Q16816 (whole entry, looked up): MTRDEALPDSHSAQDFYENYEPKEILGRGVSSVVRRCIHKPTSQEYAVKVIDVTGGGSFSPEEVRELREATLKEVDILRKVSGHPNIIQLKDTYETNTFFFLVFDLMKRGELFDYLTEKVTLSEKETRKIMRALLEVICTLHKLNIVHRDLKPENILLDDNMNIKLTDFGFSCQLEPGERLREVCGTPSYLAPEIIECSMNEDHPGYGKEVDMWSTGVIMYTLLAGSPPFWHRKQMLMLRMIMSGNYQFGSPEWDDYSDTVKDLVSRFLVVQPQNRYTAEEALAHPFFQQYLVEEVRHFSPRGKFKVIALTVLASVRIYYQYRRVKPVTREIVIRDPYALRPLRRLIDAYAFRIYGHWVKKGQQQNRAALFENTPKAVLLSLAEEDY
Chain of UniProt P24723 (whole entry, looked up): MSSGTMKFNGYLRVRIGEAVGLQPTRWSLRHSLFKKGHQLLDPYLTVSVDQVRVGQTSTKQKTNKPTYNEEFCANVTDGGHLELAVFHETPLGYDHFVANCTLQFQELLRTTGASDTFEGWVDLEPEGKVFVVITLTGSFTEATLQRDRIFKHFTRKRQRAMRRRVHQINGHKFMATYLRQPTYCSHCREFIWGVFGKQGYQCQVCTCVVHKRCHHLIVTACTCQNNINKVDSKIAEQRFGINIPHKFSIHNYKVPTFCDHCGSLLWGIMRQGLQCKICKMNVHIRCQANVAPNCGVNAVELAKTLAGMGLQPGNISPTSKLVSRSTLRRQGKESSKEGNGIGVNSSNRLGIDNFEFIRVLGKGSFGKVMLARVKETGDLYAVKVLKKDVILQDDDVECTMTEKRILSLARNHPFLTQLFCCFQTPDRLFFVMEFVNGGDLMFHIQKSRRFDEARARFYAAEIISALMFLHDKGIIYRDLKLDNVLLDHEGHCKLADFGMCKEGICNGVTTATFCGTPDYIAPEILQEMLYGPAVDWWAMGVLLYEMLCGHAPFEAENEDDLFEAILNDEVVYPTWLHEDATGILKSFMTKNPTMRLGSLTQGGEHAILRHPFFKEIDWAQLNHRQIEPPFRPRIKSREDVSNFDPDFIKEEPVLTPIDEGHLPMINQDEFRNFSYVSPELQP
Chain of UniProt P41240 (whole entry, looked up): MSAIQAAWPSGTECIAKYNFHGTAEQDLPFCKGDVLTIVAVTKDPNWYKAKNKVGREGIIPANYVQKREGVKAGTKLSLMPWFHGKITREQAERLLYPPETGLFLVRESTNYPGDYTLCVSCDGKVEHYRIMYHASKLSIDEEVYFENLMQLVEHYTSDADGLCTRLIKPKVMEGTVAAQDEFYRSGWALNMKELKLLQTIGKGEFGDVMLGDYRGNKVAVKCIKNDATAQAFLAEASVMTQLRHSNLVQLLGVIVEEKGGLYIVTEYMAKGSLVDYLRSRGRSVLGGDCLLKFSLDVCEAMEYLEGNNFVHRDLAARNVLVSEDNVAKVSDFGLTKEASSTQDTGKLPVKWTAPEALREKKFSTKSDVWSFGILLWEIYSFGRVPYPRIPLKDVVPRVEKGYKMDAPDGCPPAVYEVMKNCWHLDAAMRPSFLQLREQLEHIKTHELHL
Chain of UniProt Q15139 (whole entry, looked up): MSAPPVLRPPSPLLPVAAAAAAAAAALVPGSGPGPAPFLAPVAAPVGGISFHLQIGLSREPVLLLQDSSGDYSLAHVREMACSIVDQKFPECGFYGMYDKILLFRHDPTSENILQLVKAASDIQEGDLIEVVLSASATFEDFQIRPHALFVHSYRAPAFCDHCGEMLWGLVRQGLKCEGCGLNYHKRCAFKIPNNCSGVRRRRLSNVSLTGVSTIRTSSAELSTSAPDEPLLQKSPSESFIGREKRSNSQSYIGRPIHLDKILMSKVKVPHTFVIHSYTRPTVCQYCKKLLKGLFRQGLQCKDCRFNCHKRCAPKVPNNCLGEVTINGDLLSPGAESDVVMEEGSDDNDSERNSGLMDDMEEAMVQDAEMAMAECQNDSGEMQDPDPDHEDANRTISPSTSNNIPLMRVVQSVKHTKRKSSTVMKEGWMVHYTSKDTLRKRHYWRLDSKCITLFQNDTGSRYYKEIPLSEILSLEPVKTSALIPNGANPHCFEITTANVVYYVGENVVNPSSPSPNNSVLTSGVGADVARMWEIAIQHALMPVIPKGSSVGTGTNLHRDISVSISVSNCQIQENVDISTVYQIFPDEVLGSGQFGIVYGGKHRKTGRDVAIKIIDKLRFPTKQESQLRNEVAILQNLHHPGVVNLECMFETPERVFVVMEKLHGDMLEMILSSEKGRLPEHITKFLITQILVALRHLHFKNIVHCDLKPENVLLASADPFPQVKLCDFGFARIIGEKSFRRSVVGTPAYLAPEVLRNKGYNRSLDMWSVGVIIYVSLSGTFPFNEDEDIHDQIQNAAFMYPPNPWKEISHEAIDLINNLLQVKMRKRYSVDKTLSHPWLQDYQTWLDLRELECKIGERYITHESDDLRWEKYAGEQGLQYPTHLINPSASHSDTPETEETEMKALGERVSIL
Chain of UniProt P80192 (whole entry, looked up): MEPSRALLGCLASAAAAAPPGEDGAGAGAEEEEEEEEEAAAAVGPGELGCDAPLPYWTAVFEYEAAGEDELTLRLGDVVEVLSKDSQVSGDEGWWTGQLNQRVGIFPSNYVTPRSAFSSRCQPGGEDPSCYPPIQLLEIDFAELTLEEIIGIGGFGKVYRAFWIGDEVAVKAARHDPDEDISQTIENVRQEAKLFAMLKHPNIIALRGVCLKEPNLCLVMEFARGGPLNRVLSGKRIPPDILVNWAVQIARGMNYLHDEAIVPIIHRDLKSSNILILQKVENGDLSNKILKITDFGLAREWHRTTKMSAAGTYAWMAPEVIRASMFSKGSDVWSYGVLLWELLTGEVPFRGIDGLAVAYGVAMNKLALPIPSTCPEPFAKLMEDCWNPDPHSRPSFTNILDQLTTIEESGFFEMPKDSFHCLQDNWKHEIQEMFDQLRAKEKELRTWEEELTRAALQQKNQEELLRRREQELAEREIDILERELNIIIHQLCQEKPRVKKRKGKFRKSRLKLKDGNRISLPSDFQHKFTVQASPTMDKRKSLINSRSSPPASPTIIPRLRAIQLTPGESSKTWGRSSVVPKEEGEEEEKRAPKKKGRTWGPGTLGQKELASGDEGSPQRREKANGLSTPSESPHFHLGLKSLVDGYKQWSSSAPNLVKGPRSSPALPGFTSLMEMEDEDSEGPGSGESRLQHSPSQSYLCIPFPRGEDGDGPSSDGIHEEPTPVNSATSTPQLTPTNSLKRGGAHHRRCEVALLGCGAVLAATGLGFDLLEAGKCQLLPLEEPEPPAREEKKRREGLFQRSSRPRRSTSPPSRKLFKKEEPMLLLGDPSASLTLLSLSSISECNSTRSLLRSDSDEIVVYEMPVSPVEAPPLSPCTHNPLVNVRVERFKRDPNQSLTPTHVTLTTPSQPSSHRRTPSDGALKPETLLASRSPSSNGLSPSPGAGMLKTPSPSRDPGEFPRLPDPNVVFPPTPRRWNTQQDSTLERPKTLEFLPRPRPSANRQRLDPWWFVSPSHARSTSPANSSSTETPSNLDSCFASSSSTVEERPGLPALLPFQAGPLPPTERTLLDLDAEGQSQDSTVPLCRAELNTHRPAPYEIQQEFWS

Block 1 — cell line: HuT78; tested at: 2 µM; time: 48 h; relative to: untreated
Compound	viability
CC(C)N(CCC(=O)c1ccc2ccccc2c1)Cc1ccccc1	89.9%
CC(C)(C)c1ccc(S(=O)(=O)/C=C/C#N)cc1	22.4%
Cc1c(F)cc(C(=O)NC2CC2)cc1-c1ccc(C(=O)NCC(C)(C)C)cn1	103%
Cc1ccc(F)c(NC(=O)Nc2ccc(-c3cccc4[nH]nc(N)c34)cc2)c1	143%
Cc1c[nH]c2nc(Nc3ccc(N4CCN(C)CC4)c(F)c3)nc(-c3cccc(CC#N)c3)c12	42.9%
CNC(=O)c1cc(Oc2ccc(NC(=O)Nc3ccc(Cl)c(C(F)(F)F)c3)c(F)c2)ccn1	110%
Cn1sc(=O)n(Cc2ccccc2)c1=O	74.7%
O=C(NCc1ccccc1)c1csc(Nc2ccncn2)n1	134%

Block 2 — read-out: cell-free assay; method: competition with immobilised ligand; tested at: 1 µM
SMILES: O=C(Nc1cccnn1)N1CC(C/C=C/c2cncc(Oc3ccc(C(F)(F)F)cn3)n2)C1
target	remaining binding [%]
CSK (Homo sapiens, UniProt P41240)	100
MAP3K9 (Homo sapiens, UniProt P80192)	100
MAP3K10 (Homo sapiens, UniProt Q02779)	100
PHKG1 (Homo sapiens, UniProt Q16816)	100
PRKD1 (Homo sapiens, UniProt Q15139)	100
PRKCH (Homo sapiens, UniProt P24723)	100

Block 3 — read-out: enzyme activity; mode: inhibitor; tested at: 0.5 µM; relative to: control
Target: Mitogen-activated protein kinase kinase kinase 10 (MAP3K10, Homo sapiens, UniProt Q02779)
SMILES	remaining activity [%]
COc1ccc(C(=O)Nc2sc3c(c2C(N)=O)CCCC3)cc1OC	96.6
Cc1cccc(-c2[nH]c(C(C)(C)C)nc2-c2ccc3c(c2)OCO3)n1	99.3
O=S(=O)(c1cccc2cnccc12)N1CCCNCC1	88.3
COc1ccc(CNC(=O)Nc2ncc([N+](=O)[O-])s2)cc1	97.9
O=c1c2ccccc2[nH]c(=S)n1CCN1CCC(=C(c2ccc(F)cc2)c2ccc(F)cc2)CC1	99.6
COc1cc2ncnc(Nc3ccc(Oc4ccccc4)cc3)c2cc1OC	96.7
NCCNc1ncc(C(N)=O)c(Nc2cccc(C(F)(F)F)c2)n1	100
N#CC(C#N)=C(N)/C(C#N)=C/c1ccc(O)cc1	98
O=C(Nc1cccc(Nc2cc(Nc3cccc(C(F)(F)F)c3)ncn2)c1)C1CC1	101
COc1ccc(OC)c2c(=S)c3ccccc3[nH]c12	92.8
CC(C)[C@H](CO)Nc1nc(Nc2cc(N)cc(Cl)c2)c2ncn(C(C)C)c2n1	95.1
Nc1ccc2ncnc(NCCc3ccc(Oc4ccccc4)cc3)c2c1	91.9
C#Cc1cccc(Nc2ncnc3cc(OCCOC)c(OCCOC)cc23)c1	108
O=C1NC(=O)C(c2cn(CCCn3ccnc3)c3ccccc23)=C1Nc1ccccc1	34.5
Cn1sc(=O)n(Cc2ccccc2)c1=O	99.5

Block 4 — organism: Sarcocystis neurona; read-out: parasite growth; tested at: 10 µM; setting: secondary screen
Structure (SMILES)	inhibition [%]
Cc1nccn1CC1CCc2c(c3ccccc3n2C)C1=O.Cl (stereo not shown)	-33.4
CC(=O)OCC(=O)[C@@]12OC(C)(C)O[C@@H]1C[C@H]1[C@@H]3C[C@H](F)C4=CC(=O)C=C[C@]4(C)[C@@]3(F)[C@@H](O)C[C@@]12C	-56.6
CCN(CC)CCNC(=O)c1cc(Cl)c(N)cc1OC.Cl	-29.3
COc1cc(C(=O)NC2CCCNC2)cc(OC)c1OC (stereo not shown)	-40
Cc1cn([C@H]2C[C@H](N=[N+]=[N-])[C@@H](CO)O2)c(=O)[nH]c1=O	-27.2

Some of these lines once more (block 1):
Compound	viability
CNC(=O)c1cc(Oc2ccc(NC(=O)Nc3ccc(Cl)c(C(F)(F)F)c3)c(F)c2)ccn1	110%
Cn1sc(=O)n(Cc2ccccc2)c1=O	74.7%
